Measured values from different studies.
Numbered parts are unrelated; each lists some results of a single study.

Sample 1
Target: Sal-like protein 4, full length isoform A (SALL4, Homo sapiens, UniProt Q9UJQ4, residues 1-1053)
UniProt Q9UJQ4, sequence (whole entry, looked up): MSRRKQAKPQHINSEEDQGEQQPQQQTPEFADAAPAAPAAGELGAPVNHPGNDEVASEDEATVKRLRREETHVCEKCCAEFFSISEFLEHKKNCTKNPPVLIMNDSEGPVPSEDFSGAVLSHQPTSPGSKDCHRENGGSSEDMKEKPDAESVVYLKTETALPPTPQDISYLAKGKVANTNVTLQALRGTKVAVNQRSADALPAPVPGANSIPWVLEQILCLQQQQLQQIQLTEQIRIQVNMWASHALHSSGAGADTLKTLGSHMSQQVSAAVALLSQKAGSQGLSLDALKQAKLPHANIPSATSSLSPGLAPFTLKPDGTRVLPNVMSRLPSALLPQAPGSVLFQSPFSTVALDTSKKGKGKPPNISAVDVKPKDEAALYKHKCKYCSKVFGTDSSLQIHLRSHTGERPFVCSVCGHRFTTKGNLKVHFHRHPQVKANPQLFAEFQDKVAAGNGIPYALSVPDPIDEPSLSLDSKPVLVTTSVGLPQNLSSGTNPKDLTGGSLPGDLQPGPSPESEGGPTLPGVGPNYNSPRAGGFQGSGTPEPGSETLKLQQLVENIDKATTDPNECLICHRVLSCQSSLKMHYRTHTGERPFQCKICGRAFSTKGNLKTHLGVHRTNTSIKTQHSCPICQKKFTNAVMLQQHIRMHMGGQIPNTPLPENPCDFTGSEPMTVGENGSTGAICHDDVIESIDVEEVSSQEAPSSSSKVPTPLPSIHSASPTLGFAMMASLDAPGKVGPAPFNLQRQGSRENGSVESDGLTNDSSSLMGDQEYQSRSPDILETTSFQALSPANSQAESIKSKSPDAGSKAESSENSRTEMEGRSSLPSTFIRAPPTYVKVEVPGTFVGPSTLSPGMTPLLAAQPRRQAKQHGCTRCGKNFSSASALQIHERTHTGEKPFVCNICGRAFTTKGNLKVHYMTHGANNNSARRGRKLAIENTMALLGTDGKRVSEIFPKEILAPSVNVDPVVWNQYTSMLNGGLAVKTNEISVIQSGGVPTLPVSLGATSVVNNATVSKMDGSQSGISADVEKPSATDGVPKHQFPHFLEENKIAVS
Method: universal PBM
Molecule type: double-stranded DNA, one strand shown
Medium: in vitro
Concentration: 600 nM
Setting: 8-mer, flanks averaged, mean of replicates
Reading: higher = stronger binding
Sequence | E-score
ACCGTAAG | 0.0219
AAGAGAGT | 0.00361
AGGACCGC | -0.223
CTGCCTAA | -0.125
ATCAAATA | 0.319
ACGTGCAC | -0.148
GAAAGGAC | 0.0717
ATCAAAAC | 0.217
ACTTCATG | -0.0494
AGTGGTGG | -0.0296
AAAGCTTG | 0.0623
CTCCTCAG | -0.169
CTGTCGCC | -0.277
GAAATCGC | -0.14
AAGTATCT | 0.121
GTTCCAGA | 0.0407

Sample 2
Target: Ras GTPase-activating protein-binding protein 1, C-terminal RGG region (G3BP1, Homo sapiens, UniProt Q13283)
UniProt Q13283, sequence (whole entry, looked up): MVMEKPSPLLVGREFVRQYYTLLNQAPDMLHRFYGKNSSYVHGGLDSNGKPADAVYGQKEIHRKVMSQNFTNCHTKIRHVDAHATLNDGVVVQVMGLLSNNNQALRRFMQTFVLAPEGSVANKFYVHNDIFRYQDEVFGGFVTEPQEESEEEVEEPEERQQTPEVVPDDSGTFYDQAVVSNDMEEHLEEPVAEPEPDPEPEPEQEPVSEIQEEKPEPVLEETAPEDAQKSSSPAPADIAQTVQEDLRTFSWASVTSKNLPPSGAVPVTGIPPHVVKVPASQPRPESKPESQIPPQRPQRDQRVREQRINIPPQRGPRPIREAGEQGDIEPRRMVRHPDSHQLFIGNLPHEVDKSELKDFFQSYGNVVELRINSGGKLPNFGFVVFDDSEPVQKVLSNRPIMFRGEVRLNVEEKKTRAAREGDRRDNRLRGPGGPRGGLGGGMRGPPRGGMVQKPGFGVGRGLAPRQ
Method: RNA Bind-n-Seq
Molecule type: RNA
Medium: in vitro
Concentration: 1 µM
Setting: whole 134-nt RNA, ends assumed
Added: 150 mM KCl
Reference: input library
Reading: higher = stronger binding
Shared flanks, not repeated: GGGAGUUCUACAGUCCGACGAUC … UGGAAUUCUCGGGUGUCAAGG
Sequence | log2 enrichment
AAGUCCUGUGCUACACAUCGUAUGUACCGAAUCGGUUUGGGGUUUGGGGUUUGGGGAAAGUAUUAUGUUACGCCGUUCGGAUCUGCACUU | -0.473
CACAGACAACACGCACCCACACAGACACAGACGGAAGGGGUUGGGAUGGGGACAGGGUGCACAGCAGGGCGGGGUAGGACCCCAGCCCCU | -0.163
ACCAUGCAGGUGGGCAUCUUUGGGAAGUGGGGCAAGGGGGGAAAAGGGAGGGGGGUAACACUUUGGGAACAGGUGGUCCCAGGUCGUUUC | -0.791
ACCAUGCAGGUGGGCAUCUUUGGGAAGUGGGGCAAGGGGGGGAUAGGGAGCGGGGUAACACUUUGGGAACAGGUGGUCCCAGGUCGUUUC | 2.5
CCUGUGCUACACAUCGUAUGUACCGAAUCGGGUUUUUUUGGUUUUUUUGGGGUUUUUUUGGAAAGUAUUAUGUUACGCCGUUCGGAUCUG | -1.6
ACCAUGCAGGUGGGCAUCCUUGGGAAGUGGGGCAAGGGGGGGAUAGGGAGGGGGGUAACACUUUGGGAACAGGUGGUCCCAGGUCGUUUC | -1.08
CAAGUCCUGUGCUACACAUCGUAUGUACCGAAUCGGGUGGGAAAAAGGGUUUGGGAAAGUAUUAUGUUACGCCGUUCGGAUCUGCACUUC | 1.67
CCUGUGCUACACAUCGUAUGUACCGAAUCGGGCCCCCCCGGGCCCCCCCGGCCCCCCCGGGAAAGUAUUAUGUUACGCCGUUCGGAUCUG | -1.62
UGGGAGGUGGUUUUUGUUUAUUUUUUUAGCUCAUUUCCAGGGGUGGGAAUUUUUUUUUAAUAUGUGUCAUGAAUAAAGUUGUUUUUGAAA | 2.72
UGGCCCUGGUGGCAUGCGGGGAGGAAGAGGUGGCCUGAUGGAUCGUGGUGGUCCCGGUGGAAUGUUCAGAGGUGGCCGUGGUGGAGACAG | 2.13
UAGUGAUGAAAAAUUUCUCCCUUCUAGGUUUCCCUUGGGGGCUUUGAAAUAACACCACCAGUGGUCUUAAGGUUGAAGUGUGGUUCAGGG | -0.741
CAAGUCCUGUGCUACACAUCGUAUGUACCGAAUCGGAAAAAAAGGAAAAAGGAGGAAAGUAUUAUGUUACGCCGUUCGGAUCUGCACUUC | -1.72
UGGGAGGUGGAUUUUGUUUAUUUUUUUAGCUCAUUUCCAGGGAUGGGAAUUUUUUUUUAAUAUGUGUCAUGAAUAAAGUUGUUUUUGAAA | 2.42
UGGCCCUGGUGGCAUGCGGGGAGGAAGAGGUGGCAUCAUGGAUCGUGGUGGUCCCGGUGGAAUGUUCAGAGGUGGCCGUGGUGGAGACAG | 2.12

Sample 3
Target: Eukaryotic initiation factor 4A-I (EIF4A1, Homo sapiens, UniProt P60842, residues 1-406, full length assumed)
UniProt P60842, sequence (whole entry, looked up): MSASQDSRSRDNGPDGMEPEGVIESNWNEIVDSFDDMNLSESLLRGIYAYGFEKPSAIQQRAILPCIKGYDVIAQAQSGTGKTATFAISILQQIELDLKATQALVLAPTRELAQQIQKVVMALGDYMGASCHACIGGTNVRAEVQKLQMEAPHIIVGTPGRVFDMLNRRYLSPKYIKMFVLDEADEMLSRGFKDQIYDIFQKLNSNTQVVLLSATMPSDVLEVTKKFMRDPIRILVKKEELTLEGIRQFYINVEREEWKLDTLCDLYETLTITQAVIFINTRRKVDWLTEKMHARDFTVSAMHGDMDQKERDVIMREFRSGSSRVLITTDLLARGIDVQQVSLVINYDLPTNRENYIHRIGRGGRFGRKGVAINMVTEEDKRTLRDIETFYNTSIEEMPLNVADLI
Method: RNA Bind-n-Seq
Molecule type: RNA
Medium: in vitro
Concentration: 90 pmol
Setting: 4-mer, random 30-nt RNA, single round
Added: 3 µM DMDA-PatA, 2 mM ADP, 2 mM phosphate
Reference: input library
Reading: higher = stronger binding
Sequence | 4-mer enrichment [fold]
CGUC | 0.767
CUGA | 0.656
AUAA | 1.02
ACAA | 0.894
CUAG | 0.668
UGAA | 1.14
CACG | 0.615
UACC | 0.603
AUGG | 1.09
AAUC | 0.716
CGUG | 1.31
AUAC | 0.686
GGCG | 2.04

Sample 4
Target: Histone acetyltransferase KAT6A, winged helix 2, GST fusion (KAT6A, Homo sapiens, UniProt Q92794, residues 85-181)
Method: protein binding microarray
Molecule type: double-stranded DNA, one strand shown
Medium: in vitro
Concentration: not given
Setting: 8-mer, flanks averaged, mean of 2 arrays, mostly near background
Reference: not given
Reading: higher = stronger binding
Residues (chain): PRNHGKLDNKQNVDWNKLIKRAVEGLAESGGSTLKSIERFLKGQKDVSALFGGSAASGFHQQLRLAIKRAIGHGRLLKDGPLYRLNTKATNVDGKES
Sequence | E-score
CAAGCCTC | -0.0132
GGCAACCA | 0.0216
AACAGACT | -0.15
CTGGGTTC | 0.179
TAAACCAA | 0.14
AGCCGATA | -0.0562
ATCATGAC | 0.0223
CGCCTGCA | 0.162
AATTTGAA | -0.0236
AAGTCTAA | -0.134
CGTATAGA | -0.0533
GTTCCTGA | -0.0932
AGCGAAAC | 0.167
ACATCTCC | -0.105
ACCTACGC | -0.0395
CTATTAAA | 0.0469
AGACGTAA | -0.0572
CATCAGAG | 0.0154
AATTTAAC | 0.123

Sample 5
Target: RNA binding protein fox-1 homolog 2, RRM domain, GST-SBP tag (RBFOX2, Homo sapiens, UniProt O43251-10, residues 100-194)
Method: RNA Bind-n-Seq
Molecule type: RNA
Medium: in vitro
Concentration: 365 nM
Setting: natural RNA segment, single round, ends assumed
Reference: no-protein control
Reading: higher = stronger binding
Shared flanks, not repeated: GGGAGUUCUACAGUCCGACGAUC … UGGAAUUCUCGGGUGCCAA
Residues (chain): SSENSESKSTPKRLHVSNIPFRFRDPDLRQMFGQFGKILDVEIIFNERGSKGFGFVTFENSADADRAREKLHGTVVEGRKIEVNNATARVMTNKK
Sequence | RBNS enrichment (R)
CCCAGGGCUUUUGCUGACUCUGGGAAAGAGUCUGGAGACCACAUUUGGUUCUCGAACCAUCUACCUGCUUUUCCUCUCUCUCCCAAGGCCUGACAAUGGUACCUAUUAGG | 0.269
AGAGCCCGGCCACAAAUUCUGAGGAAAAACAAAAACUAAAGGAUGAACGAACGAACGAACGAAUGAAAACACACACAAAAUGUUUCAAGUUCCCCUAAAAUAUGACCCAC | 1.07
GAGAGAAAGGGCCAAUCUGUAGGGGUAGCCCUGUCCAGGUAAAGUUGUUUUCAGCCUCAUGUCUACUGUUAGGUGAGGGAGUCACAGCCAGACAGAGAGUAUUGCUGGAG | 0.545
AGAAGAAAUAUGUUACACUCAGAAAUGAUGAAACCAAAUCUUAUAUUAAAAGGCAAAGAUGACGGAGCUGUGCCCAUUUCUUAUAUGCCCUCCCUCAUGUCCAGUCCCCG | 0.305
UCUCUGCUGCUUCUCUGGCUUGUUUCCUACAGCGGGGGCCUGUGGGAUUGAGUCUUGAGGAAUUCUCUCAGAUGAGAGCCAUAGGAGAUGGCCUCAUCUCCUGACUGUUU | 0.698
CUUGAGAAUUUCAUGAGCACUUUAAAAUCUGAACUUUCAAAGCUUGCUAUUAAAUCAUUUAGAAUGUUUACAUUUACUAAGGUGUGCUGGGUCAUGUAAAAUAUUAGACA | 1.22
ACCUAGGGAAUGGUUACCACUCCAUGUAAAGAAAACUCCCUCAUGCGUCCUCUGGGACCUUCUUAGAUGCUGUAAGGUACCUACAUACAGACUAAAUGUGCAAGCACCUU | 0.586
CCUCAGGAUAGGGAAGAGCAGGGGGAUGCAGGAAUAGCAGGGAUAGCUUGCUCCCAGCCCCCUCCCCAAUUUGGUUCCGUUGACAUAGGAAUUUUACGAUUCCCAAACCA | 0.987
AGACUUUGUAGACUACUAUAAAGACCAUCCUGAGCCAGACCUGCAGUCAACAGCAAGAGCAAGAAGCACAUAGGAACUAUACCUGCAACCAAGCUGGCAUAAGAACCAAG | 0.679
CAGUGUGACGAAAGGCGGCCUGUACUGCCCUAAGAAAUCUGAUGUAAAGUUUUUGUAUAUUUCAUAUUCCACCCACCAGAUUCUGCUUCCAUUUAAUAAAACCCUUUUUG | 0.756
UUAUUCCCAGUAAGCUUCCAUGACCCUUUCUUGGAGGCCUUCACAGGUAAUACAGAUACUGGCACUGAUUGUAAUUAAAAUGAGAGAAAACUCUAGCGCAUCUUCUGGCA | 2.56
GUGAGCUGCCAGCUGCCCCUCUCCACCAGGGUACCCUGUCUUGGUGGUUAGGGGCCACUUUUCCUUUGAGGCUCUAGUGGAGGUGGAUGUCCUUCUCUGCCAGGCUUGGC | 0.188

Sample 6
Target: Interferon regulatory factor 7, full length, phosphomimetic (IRF7, Homo sapiens, UniProt Q92985, residues 1-503, S101K/S471D/S472D/S475D/S476D/S477D/S483D/S484D/S487D)
UniProt Q92985, sequence (whole entry, unmodified, looked up): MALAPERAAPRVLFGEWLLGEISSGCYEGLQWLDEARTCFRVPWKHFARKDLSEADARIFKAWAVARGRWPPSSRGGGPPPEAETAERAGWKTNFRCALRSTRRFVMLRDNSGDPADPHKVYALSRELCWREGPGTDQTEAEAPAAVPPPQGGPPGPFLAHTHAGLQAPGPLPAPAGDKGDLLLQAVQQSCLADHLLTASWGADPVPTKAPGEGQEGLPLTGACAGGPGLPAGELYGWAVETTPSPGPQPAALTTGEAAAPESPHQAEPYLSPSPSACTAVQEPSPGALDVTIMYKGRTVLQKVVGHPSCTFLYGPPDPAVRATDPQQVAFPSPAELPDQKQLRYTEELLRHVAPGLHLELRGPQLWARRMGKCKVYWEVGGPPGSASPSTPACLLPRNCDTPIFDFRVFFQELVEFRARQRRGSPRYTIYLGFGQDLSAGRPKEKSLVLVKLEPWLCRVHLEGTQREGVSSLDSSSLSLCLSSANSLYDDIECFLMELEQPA
Method: protein-binding microarray
Molecule type: double-stranded DNA, one strand shown
Medium: in vitro
Concentration: 250 nM
Setting: 60-bp whole probe
Added: salmon DNA 0.4 mg/ml
Reference: random background probes
Reading: higher = stronger binding
Shared flanks, not repeated: GCCTAGCAC … GTCTTGATTCGCTTGACGCTGCTG
Sequence | log fluorescence [z-score]
GACGGTATCCTTTTCCTGACGTGCTAG | 0.969
GACGGTCTCCGTTTCCTGACGTGCTAG | 1.99
GACGGTTTCCTCATCCTGACGTGCTAG | 1.71
TTAGGTTTCGGTTTCGTTTAGTGCTAG | 15
GACGATATCGGGGTTCGAGACGTGCTA | -0.171
GACGAACTCAGTCTCGAGACGTGCTAG | 0.397
TCATTTTTTTTTTTTTTACTGTGCTAG | 1.15
TTAGGTCTCTGACTGGGTTAGTGCTAG | -0.252
TTAGGTTTCCGGTATCGGTTAGTGCTA | 3.22
GACGGACTGGTCTATCGGGACGTGCTA | -0.783
ACCCTTGAGTGGTCCAGAGTGTGCTAG | -0.702
TTTACTCTCTACATGGGTATGTGCTAG | 0.462
GACGATATCAGTATCCAGACGTGCTAG | 0.142
TCAGCTCTCCGGGGTCTGACTGTGCTA | -0.572
TTAGATTTCAGTATCGATTCGTGCTAG | 3.11
TGTGTCTGGAATTTTTAGAAGTGCTAG | -0.413
GACGGACTGGGCATCGGGACGTGCTAG | -0.865
TCATCTCCCAAGTCTTGTACTGTGCTA | 0.594
TAGAATGTCCTTTCTCCATGGGTGCTA | 0.121
CTAGATTCCAGTTTCGATTAGTGCTAG | 10.2
GACGGTATCGGAGTGGGGACGTGCTAG | -0.401
TCATGTCTTCCCCTCTCACTGTGCTAG | 0.926

For quick reference, copied from above (sample 3):
Sequence | 4-mer enrichment [fold]
UACC | 0.603
CGUC | 0.767
ACAA | 0.894
CACG | 0.615
CUAG | 0.668
CGUG | 1.31
AUAC | 0.686
AAUC | 0.716
UGAA | 1.14
CUGA | 0.656
AUAA | 1.02
GGCG | 2.04
AUGG | 1.09
